# Results pooled from the literature.
# ± marks the error that the study gave.
SMILES,tested on,assay,test system,setting,endpoint,value
CC(C)(C)OC(=O)N[C@@H](CCCCCC(=O)NO)C(=O)NC1CCCC1,Lucilia cuprina,pupation,"LS strain, larvae on impregnated cotton wool",216 h,IC50,> 200 µg
COc1cc(C(=O)c2[nH]c(N)nc2-c2cccs2)cc(OC)c1OC,tubulin goat,taxol-induced tubulin polymerization,,"60 µM, with: taxol 10 µM",inhibition,40 ± 8%
O=C1NCC(Cc2ccccc2)N(CC2CCCN2CC(CC2CCCCC2)N2CC(Cc3ccc(O)cc3)N(CCc3ccccc3)C(=O)C2=O)C1=O (stereo not drawn),WM 266-4,"western blot, refers to: DDX1, hnRNP H2, hnRNP A2/B1",,concentration not given,protein level,decreased
O=C(CCCCCCCC(=O)NO)NO,Lucilia cuprina,larval weight gain,"LS strain, larvae on impregnated cotton wool",24 h,IC50,> 1000 µg
CCCCCCCCCCCCCCCC(=O)N[C@@H](CCCCN)C(=O)N[C@@H](CCCCN)C(=O)N[C@@H](CO)C(=O)N[C@@H](CCCNC(=N)N)C(=O)N[C@@H](C)C(=O)N[C@@H](CC(C)C)C(=O)N[C@@H](Cc1ccccc1)C(N)=O,baboon PAR1,ex vivo platelet aggregation,baboon,"intravenous infusion, 6 mg/kg, 6 h, infusion 45 min, with: SFLLRN",inhibition,90%
COc1cc(CCC(C)=O)ccc1O,mouse mAb 1-F12,"antibody binding, indirect competitive ELISA",,,IC50,0.68 µg/mL
O=C(NO)c1cccc2ccccc12,Lucilia cuprina,pupation,"LS strain, larvae on impregnated cotton wool",216 h,IC50,> 1000 µg
O=C1CCN(Cc2ccccc2)CC1C(C[N+](=O)[O-])c1ccccc1 (stereo not drawn),,tail immersion test,BALB/c mice,"ip, 25 mg/kg, 0.25 h",tail flick response,15.2%
O=C(CCCCCCNC(=O)c1cnc(N(c2ccccc2)c2ccccc2)nc1)NO,Lucilia cuprina,pupation,"LS strain, larvae on impregnated cotton wool",216 h,IC50,> 1000 µg
CNc1cc(C(=O)Nc2ccc(Cl)cc2)ccc1OC,duck hepatitis B virus,"viral replication, qPCR",DHBV-infected Pekin ducklings,"oral, 100 mg/kg, day 14",serum DHBV DNA,inhibited
CC(=O)[O-].O.[Cu+2].[O-]c1ccc(Br)cc1C=NCCN1CCOCC1,Candida albicans,,,20 µL of 100 µM per disc,inhibition zone diameter,14 mm
CCCCC/C=C/C(=O)CCc1ccc(O)c(OC)c1,mouse mAb 1-F12,"antibody binding, indirect competitive ELISA",,,IC50,0.975 µg/mL
